Results from different studies.
A part holds a random share of what one study measured. Values joined by “and” are separate records of one study, mostly repeats; a detail may differ.
Sequence of UniProt P00519 (whole entry, looked up): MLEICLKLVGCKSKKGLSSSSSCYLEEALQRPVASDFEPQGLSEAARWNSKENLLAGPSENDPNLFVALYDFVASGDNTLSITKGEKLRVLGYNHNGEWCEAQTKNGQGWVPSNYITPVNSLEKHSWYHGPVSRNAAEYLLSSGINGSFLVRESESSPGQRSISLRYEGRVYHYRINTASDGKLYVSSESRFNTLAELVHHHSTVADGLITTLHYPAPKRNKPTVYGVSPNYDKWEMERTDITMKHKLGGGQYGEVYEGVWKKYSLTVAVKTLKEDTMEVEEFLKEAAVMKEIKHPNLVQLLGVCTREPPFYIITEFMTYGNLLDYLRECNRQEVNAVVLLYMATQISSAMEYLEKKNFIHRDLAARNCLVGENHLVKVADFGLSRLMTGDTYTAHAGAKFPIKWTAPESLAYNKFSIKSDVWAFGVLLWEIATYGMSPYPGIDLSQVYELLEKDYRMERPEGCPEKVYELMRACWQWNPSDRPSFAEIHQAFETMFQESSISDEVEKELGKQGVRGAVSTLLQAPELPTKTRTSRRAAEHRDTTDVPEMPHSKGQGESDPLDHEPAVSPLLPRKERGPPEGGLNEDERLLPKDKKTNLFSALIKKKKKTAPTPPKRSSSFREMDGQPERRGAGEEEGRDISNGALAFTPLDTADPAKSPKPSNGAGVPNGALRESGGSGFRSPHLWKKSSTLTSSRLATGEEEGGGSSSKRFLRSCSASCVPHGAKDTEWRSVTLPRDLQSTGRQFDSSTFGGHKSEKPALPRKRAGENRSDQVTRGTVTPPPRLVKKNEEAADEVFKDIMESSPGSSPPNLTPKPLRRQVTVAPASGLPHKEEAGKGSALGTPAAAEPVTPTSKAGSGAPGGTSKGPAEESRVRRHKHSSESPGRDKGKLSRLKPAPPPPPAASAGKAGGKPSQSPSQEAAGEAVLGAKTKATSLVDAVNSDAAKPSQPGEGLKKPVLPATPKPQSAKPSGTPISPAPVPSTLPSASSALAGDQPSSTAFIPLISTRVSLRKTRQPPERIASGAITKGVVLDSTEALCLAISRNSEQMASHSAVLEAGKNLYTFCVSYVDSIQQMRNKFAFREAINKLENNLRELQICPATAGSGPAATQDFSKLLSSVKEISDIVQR
Sequence of UniProt Q00534 (whole entry, looked up): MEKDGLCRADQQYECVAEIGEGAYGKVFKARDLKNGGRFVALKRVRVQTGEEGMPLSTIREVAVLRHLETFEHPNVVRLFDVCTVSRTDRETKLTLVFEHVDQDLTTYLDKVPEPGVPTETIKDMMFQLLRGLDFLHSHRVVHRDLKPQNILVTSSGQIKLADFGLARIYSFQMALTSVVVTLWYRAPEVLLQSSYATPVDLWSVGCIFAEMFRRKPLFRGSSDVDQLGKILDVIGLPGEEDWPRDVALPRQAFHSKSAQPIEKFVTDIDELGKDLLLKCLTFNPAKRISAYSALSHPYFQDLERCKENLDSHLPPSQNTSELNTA
Sequence of UniProt P30530 (whole entry, looked up): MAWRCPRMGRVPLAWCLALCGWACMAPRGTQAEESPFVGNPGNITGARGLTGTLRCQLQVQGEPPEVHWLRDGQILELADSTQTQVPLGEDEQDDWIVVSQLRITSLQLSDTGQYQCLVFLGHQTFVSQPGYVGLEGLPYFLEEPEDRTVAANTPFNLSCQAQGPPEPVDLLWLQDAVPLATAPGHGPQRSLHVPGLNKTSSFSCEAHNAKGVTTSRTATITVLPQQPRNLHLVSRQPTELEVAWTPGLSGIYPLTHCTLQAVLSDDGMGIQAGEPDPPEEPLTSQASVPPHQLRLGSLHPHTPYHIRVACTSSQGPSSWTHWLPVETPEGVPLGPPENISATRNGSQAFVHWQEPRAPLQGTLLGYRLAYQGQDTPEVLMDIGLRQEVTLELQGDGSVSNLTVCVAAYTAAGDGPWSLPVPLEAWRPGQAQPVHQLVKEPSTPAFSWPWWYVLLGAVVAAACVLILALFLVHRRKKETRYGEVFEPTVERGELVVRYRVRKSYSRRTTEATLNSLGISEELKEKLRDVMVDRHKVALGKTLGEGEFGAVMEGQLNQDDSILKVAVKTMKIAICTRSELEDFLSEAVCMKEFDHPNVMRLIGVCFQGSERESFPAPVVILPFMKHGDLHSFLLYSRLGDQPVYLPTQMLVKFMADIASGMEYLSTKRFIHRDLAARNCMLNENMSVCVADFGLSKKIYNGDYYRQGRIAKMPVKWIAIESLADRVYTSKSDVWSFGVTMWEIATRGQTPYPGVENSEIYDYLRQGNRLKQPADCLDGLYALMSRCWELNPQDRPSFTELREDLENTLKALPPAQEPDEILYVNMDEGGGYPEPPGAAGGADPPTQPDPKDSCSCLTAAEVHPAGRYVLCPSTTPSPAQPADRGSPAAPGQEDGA
Sequence of UniProt Q13554 (whole entry, looked up): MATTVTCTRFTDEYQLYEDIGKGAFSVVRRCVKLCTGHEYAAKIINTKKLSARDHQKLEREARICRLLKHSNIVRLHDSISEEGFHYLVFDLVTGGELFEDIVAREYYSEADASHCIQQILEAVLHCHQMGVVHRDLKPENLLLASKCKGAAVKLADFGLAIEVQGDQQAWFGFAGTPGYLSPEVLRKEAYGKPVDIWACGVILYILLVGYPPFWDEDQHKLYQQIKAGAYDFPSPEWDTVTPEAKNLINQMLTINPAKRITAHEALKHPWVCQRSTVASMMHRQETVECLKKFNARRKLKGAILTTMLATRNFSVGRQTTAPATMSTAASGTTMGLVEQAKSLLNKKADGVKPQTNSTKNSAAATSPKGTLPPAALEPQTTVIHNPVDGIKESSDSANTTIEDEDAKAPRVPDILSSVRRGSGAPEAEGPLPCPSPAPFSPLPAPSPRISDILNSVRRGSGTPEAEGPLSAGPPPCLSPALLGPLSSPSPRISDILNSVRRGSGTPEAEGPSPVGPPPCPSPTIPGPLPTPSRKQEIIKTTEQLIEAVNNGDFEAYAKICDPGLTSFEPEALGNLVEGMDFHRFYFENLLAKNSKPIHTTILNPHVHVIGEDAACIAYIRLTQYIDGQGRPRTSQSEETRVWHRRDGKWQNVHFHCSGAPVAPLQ
Sequence of UniProt Q9UK32 (whole entry, looked up): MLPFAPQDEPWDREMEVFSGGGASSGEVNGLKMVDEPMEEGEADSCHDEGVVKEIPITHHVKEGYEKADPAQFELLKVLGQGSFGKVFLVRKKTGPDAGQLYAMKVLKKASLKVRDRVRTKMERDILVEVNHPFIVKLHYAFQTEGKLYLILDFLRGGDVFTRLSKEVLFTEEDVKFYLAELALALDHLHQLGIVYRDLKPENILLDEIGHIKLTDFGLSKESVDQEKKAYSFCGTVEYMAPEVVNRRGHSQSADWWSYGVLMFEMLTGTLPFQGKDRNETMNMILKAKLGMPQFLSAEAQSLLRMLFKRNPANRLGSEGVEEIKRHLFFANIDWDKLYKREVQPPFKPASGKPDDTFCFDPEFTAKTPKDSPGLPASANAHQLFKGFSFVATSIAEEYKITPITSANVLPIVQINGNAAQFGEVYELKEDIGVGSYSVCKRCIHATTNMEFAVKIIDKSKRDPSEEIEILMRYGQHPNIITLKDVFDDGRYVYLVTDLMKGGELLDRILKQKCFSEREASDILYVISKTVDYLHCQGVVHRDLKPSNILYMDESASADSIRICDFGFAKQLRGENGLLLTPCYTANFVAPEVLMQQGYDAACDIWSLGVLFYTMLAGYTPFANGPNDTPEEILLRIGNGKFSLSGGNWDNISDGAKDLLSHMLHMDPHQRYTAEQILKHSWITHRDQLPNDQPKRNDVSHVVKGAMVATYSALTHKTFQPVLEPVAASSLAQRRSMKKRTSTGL
Sequence of UniProt P06493 (whole entry, looked up): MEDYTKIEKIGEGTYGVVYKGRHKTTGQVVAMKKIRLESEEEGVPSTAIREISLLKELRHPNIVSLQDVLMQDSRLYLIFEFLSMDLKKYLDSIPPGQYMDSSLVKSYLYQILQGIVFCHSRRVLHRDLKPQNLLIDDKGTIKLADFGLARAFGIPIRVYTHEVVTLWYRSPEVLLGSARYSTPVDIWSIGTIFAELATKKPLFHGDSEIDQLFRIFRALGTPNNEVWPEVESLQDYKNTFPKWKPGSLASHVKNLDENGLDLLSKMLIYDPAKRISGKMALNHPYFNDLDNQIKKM

Set 1
Target: Calcium/calmodulin-dependent protein kinase type II subunit alpha (CAMK2A, Homo sapiens, UniProt Q9UQM7)
Sequence of UniProt Q9UQM7 (whole entry, looked up): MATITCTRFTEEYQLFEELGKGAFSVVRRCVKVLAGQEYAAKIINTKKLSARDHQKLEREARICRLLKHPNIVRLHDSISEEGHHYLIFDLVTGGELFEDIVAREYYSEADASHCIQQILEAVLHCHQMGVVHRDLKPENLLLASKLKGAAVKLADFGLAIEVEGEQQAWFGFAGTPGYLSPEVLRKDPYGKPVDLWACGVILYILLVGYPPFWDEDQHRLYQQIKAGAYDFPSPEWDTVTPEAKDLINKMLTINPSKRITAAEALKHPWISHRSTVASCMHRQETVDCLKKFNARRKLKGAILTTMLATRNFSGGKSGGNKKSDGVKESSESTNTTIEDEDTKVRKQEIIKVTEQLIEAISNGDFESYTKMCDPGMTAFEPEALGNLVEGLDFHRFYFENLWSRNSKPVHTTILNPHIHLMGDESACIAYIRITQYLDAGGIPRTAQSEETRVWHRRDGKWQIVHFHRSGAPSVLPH
Observed: enzyme activity
Action: inhibitor
Concentration: 10 µM
With `C[C@H]1O[C@H](O[C@H]2[C@H](O)[C@@H](O)[C@@H](O)[C@H](O)[C@@H]2O)[C@@H](N)C[C@@H]1NC(=N)C(=O)O` the inhibition was -15%.
`NC(=O)Cc1ccccc1` gave an inhibition of 5%.
With `O=c1cccc2n1C[C@H]1C[C@@H]2CN2CCCC[C@@H]12` the inhibition was -8%.
`COC(=O)C1=CO[C@@H](C)[C@@H]2CN3CC[C@@]4(C(=O)Nc5ccccc54)[C@@H]3C[C@H]12` gave an inhibition of -83%.
With `c1ccc2c(c1)cc1ccc3cccc4ccc2c1c34` the inhibition was -19%.
With `O=CN1C[C@@H]2C[C@H](C1)c1cccc(=O)n1C2` the inhibition was 10%.
For `C[C@@H]1O[C@@H](O[C@@H]2C=C3CC[C@@H]4[C@H](CC[C@]5(C)[C@@H](c6ccc(=O)oc6)CC[C@]45O)[C@@]3(C)CC2)[C@H](O)[C@H](O)[C@H]1O`, the inhibition was 19%.

Set 2
Compound: CC[C@H](C)c1nc2cc(Nc3ccnc4ccc(S(=O)(=O)C(C)C)cc34)ccc2s1.Cl
Cell line: HT-29
Observed: necroptosis protection
Method: CCK-8
Together with: TNF-α SMAC mimetic zVAD
For 0.078 µM: viability read 19.1% and 12.4% and 11.6% and 16.2% and 11.9%.
5 µM — viability: 89.8% and 55.4% and 66.9% and 53.8%.
For 1.25 µM: viability read 22.7% and 40.9% and 23.5% and 16.2%.

Set 3
Target: Muscarinic acetylcholine receptor M1 (CHRM1, Homo sapiens, UniProt P11229)
Sequence of UniProt P11229 (whole entry, looked up): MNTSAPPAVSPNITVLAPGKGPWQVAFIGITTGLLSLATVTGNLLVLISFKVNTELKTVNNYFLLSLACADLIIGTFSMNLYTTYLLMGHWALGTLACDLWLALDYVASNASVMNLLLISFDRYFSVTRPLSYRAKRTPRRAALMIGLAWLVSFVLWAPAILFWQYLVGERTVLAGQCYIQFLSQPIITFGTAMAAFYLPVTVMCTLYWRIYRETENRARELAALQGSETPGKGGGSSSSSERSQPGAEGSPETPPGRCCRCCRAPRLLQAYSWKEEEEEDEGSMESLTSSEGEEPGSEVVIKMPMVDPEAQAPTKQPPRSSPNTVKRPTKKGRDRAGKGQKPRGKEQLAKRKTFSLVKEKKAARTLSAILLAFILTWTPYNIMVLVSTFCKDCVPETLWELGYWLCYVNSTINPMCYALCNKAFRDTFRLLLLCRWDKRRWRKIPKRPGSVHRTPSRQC
Observed: ligand displacement
Concentration: 10 µM
`N#CC1(c2ccccn2)CCN(Cc2cc(C(=O)N3CCCC3)c(=O)n3ccccc23)CC1` gave an inhibition of -2.01%.
`COc1cc(-c2cn(C3CCc4c(F)cccc4N(CC(F)(F)F)C3=O)nn2)ccc1-n1cnc(C)c1` (centres unmarked) has an inhibition of 8.88%.
For `CC(=O)Nc1ncc(CN2CCC[C@H](Cc3cc(C)nc(C)c3)C2)s1`, the inhibition was 6.18%.
`Cc1c(N2CCNCC2)nc2ccc(Br)cc2c1C(=O)NC[C@H](CCC(=O)O)c1ccccc1Cl` has an inhibition of 8.42%.
The inhibition of `Cn1nc(C(=O)NCc2ccc(C(=O)O)cc2)cc1-c1ccc2[nH]ccc2c1` is reported as -23.3%.
For `O=S(=O)(NC1CCC(c2cc(F)ccc2F)(S(=O)(=O)c2ccc(Cl)cc2)CC1)C(F)(F)F` (centres unmarked), the inhibition was -5.38%.
`CS(=O)(=O)N1CCCC(NC(=O)[C@H](CCC2CCCCC2)NC(=O)c2ccc(CNC(=O)c3cnc4ccccn34)cc2)C1` (some centres unmarked) has an inhibition of 28.4%.
The inhibition of `O=C(N[C@H]1CCCCC/C=C\C2C[C@@]2(C(=O)O)NC(=O)[C@@H]2C[C@@H](Oc3ccncc3)CN2C1=O)OC1CCCC1` (some centres unmarked) is reported as 14.1%.
The inhibition of `COCCOc1nc(-c2ccc(Cl)nc2)nc2c1CN(C(=O)c1ncn3ccccc13)CC2` is reported as -4.03%.
`CC1CCN(c2ccnc(NCc3cn(C)cn3)n2)CC1` has an inhibition of 17.2%.
The inhibition of `Cn1cc(Cl)c2c(Oc3c(F)cc(Nc4cc(Cl)nc(N)n4)cc3F)ccnc21` is reported as -5.04%.
`CN([C@@H]1CCc2c(CC(=O)O)c3ccccc3n2C1)S(=O)(=O)c1ccc(F)cc1` gave an inhibition of 2.42%.
The inhibition of `NC(=O)c1ccc2nc(-c3ccc(C4(N)CCC4)cc3)c(-c3ccccc3)n2n1` is reported as 71.9%.

Set 4
SMILES: COc1ccc2c(c[n+](C)c3c4cc5c(cc4ccc23)OCO5)c1OC
Observed: enzyme activity
Action: inhibitor
Concentration: 0.5 µM
Reference: control
The remaining activity was 90.4% (PHKG1 (Homo sapiens, UniProt Q16816)).
The remaining activity was 101% (WNK3 (Homo sapiens, UniProt Q9BYP7)).
It gave 104% for remaining activity (STK17A (Homo sapiens, UniProt Q9UEE5)).
The remaining activity was 103% (EPHA4 (Homo sapiens, UniProt P54764)).
Cyclin-dependent kinase 4, with cyclin D3 (CDK4, Homo sapiens, UniProt P11802) — remaining activity: 98.8%.
For CAMK2B (Homo sapiens, UniProt Q13554): remaining activity read 98.9%.
It gave 94.6% for remaining activity (Cyclin-dependent kinase 6, with cyclin D3 (CDK6, Homo sapiens, UniProt Q00534)).
For BLK (Homo sapiens, UniProt P51451): remaining activity read 98.7%.
It gave 91.1% for remaining activity (RPS6KA6 (Homo sapiens, UniProt Q9UK32)).
Cyclin-dependent kinase 1, with cyclin B (CDK1, Homo sapiens, UniProt P06493) — remaining activity: 84.4%.
The remaining activity was 92.7% (ABL1 (Homo sapiens, UniProt P00519)).
The remaining activity was 98% (AXL (Homo sapiens, UniProt P30530)).
